Measurements of several laboratories.
Each line is one published result; not all experiments were run side by side. Numbers after ± are the reported error.
Target: Prothrombin (F2, Homo sapiens, UniProt P00734)

Compound | assay | conditions | how to read | quantity | result
CC(C)CCC[C@@H](C)[C@H]1CC[C@H]2[C@@H]3CC=C4C[C@@H](OS(=O)(=O)O)CC[C@]4(C)[C@H]3CC[C@]12C | enzyme activity, inhibitor, chromogenic substrate | pH 7.4, 25 °C, 0.02% Tween 80, added: Spectrozyme TH |  | maximal inhibition | 76.9 ± 3.3%
Cc1ccc(O)c(C(=O)Nc2ccc(CN)cc2)c1 | enzyme activity, inhibitor | 10 µM |  | inhibition | 23.6%
CC[C@H](C)[C@H](NC(=O)[C@@H]1CSSC[C@H](NC(=O)[C@H](Cc2ccc(O)cc2)NC(=O)CN)C(=O)N[C@@H](CO)C(=O)N[C@@H](CCCNC(=N)N)C(=O)N[C@@H](CO)C(=O)N[C@@H](Cc2ccc(O)cc2)C(=O)N2CCC[C@H]2C(=O)N2CCC[C@H]2C(=O)N[C@@H](C(C)C)C(=O)N1)C(=O)N1CCC[C@H]1C(=O)N[C@@H](CC(=O)O)C(N)=O |  |  | baseline: Ki thrombin over Ki MASP-2 | selectivity ratio | 1520
C#CCC[C@H](NC=O)C(=O)N[C@H]1CSCc2cccc(c2)CSC[C@@H](C(=O)NCC(=O)N[C@@H](CO)C(=O)NCC(=O)N[C@@H](CCON=C(N)N)C(=O)N[C@@H](CC(C)(C)C)C(=O)NCC(=O)N[C@@H](Cc2c[nH]cn2)C(=O)N[C@@H](Cc2c[nH]cn2)C(=O)N[C@@H](Cc2c[nH]cn2)C(=O)N[C@@H](Cc2c[nH]cn2)C(=O)N[C@@H](Cc2c[nH]cn2)C(=O)N[C@@H](Cc2c[nH]cn2)C(=O)N[C@@H](CCON=C(N)N)C(=O)N[C@@H](CC(C)(C)C)C(=O)O)NC(=O)[C@H]([C@@H](C)CC)NC(=O)[C@H](CCON=C(N)N)NC(=O)[C@H](CCC(N)=O)NC(=O)[C@H](C/C=C/CN)NC(=O)[C@H]([C@@H](C)CC)NC(=O)[C@H](C)NC(=O)[C@H](CC(C)(C)C)NC(=O)[C@H](CC(N)=O)NC(=O)[C@H]([C@H](O)CC)NC(=O)[C@H](Cn2oc(=O)[nH]c2=O)NC1=O | binding, equilibrium ultrafiltration |  | baseline: linear peptide over cyclic peptide | Kd fold increase | 11 to 80 fold
CC(C)C[C@H](NC(=O)[C@H](CC(N)=O)NC(=O)[C@H](CC(N)=O)NC(=O)[C@@H]1CCCN1C(=O)[C@H](Cc1c[nH]c2ccccc12)NC(=O)[C@H](CC(N)=O)NC(=O)[C@@H](N)CC(C)C)C(=O)N[C@@H](CCC(=O)O)C(=O)NCC(=O)N[C@@H](CCCNC(=N)N)C(=O)N[C@@H](CC(=O)O)C(=O)N1CCC[C@H]1C(=O)N[C@@H](Cc1ccc(O)cc1)C(=O)N[C@@H](CC(N)=O)C(=O)N[C@@H](CCCNC(=N)N)C(=O)O | binding, dot blot | 1 h, room temperature, added: thrombin 250 nM |  | bound fraction | ≥ 25%
NCc1ccc(NC(=O)c2ccc3ccccc3c2O)cc1 | enzyme activity, inhibitor | 10 µM |  | inhibition | < 20%
CC[C@H](C)[C@H](NC(=O)[C@@H]1CSSC[C@H](NC(=O)[C@H](Cc2ccc(O)cc2)NC(=O)CNC(C)=O)C(=O)N[C@@H](CO)C(=O)N[C@@H](CCCNC(=N)N)C(=O)N[C@@H](CO)C(=O)N[C@@H](Cc2ccc(O)cc2)C(=O)N2CCC[C@H]2C(=O)N2CCC[C@H]2C(=O)N[C@@H](C(C)C)C(=O)N1)C(=O)N1CCC[C@H]1C(=O)N[C@@H](CC(=O)O)C(=O)O |  |  | baseline: Ki thrombin over Ki MASP-2 | selectivity ratio | 2170
CC(C)C[C@H](NC(=O)[C@@H](NC(=O)[C@H](CCCNC(=N)N)NC(=O)CNC(=O)[C@@H]1CCCN1C(=O)[C@H](CC(=O)O)NC(=O)[C@H](CC(=O)O)NC(=O)[C@H](Cc1ccc(O)cc1)NC(=O)[C@H](CC(=O)O)NC(=O)[C@H](CC(N)=O)NC(=O)[C@@H](NC(=O)[C@H](Cc1ccc(O)cc1)NC(=O)[C@@H](N)CCC(=O)O)[C@@H](C)O)[C@@H](C)O)C(=O)N[C@@H](CO)C(=O)NCC(=O)O | binding, dot blot | 1 h, room temperature, added: thrombin 250 nM |  | bound fraction | ≥ 25%

A few entries again:
Compound | assay | conditions | how to read | quantity | result
NCc1ccc(NC(=O)c2ccc3ccccc3c2O)cc1 | enzyme activity, inhibitor | 10 µM |  | inhibition | < 20%
